# Measured values gathered from unrelated publications.
# Numbered parts are unrelated; each lists some results of a single study. Substitutions count along the parent as printed.

# Block 1
# Target: CCNE2, cyclin fold, Cln2 fusion (human)
# Method: yeast growth competition, sequencing
# Sample: yeast
# Notes: strong parent motif
# Baseline: not given
# Direction: higher = stronger binding
# Starting sequence: INSM1 docking peptide (human); PKAIRKLHFEDEV; partner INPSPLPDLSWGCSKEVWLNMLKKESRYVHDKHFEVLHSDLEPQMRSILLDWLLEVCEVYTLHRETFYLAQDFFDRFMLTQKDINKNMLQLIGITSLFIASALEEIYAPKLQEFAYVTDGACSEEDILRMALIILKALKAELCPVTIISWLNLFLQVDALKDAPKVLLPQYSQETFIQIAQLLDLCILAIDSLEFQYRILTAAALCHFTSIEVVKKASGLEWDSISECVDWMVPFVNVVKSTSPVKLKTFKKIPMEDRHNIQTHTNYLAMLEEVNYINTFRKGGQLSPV
Variant,normalised enrichment score
PKAQRKLHFEDEV [I4Q],0.952
PKAIRKLHFEDIV [E12I],1.79
PLAIRKLHFEDEV [K2L],0.766
PKAIRKLHFMDEV [E10M],0.929
PHAIRKLHFEDEV [K2H],1.85
PKFIRKLHFEDEV [A3F],0.717
PKAIPKLHFEDEV [R5P],0.0863
PKAIRKAHFEDEV [L7A],-0.0137
PKAIRKLHDEDEV [F9D],0.207
PKAVRKLHFEDEV [I4V],2.67
PKAIRKGHFEDEV [L7G],0.045
PKAIRKLHFEWEV [D11W],1.5
PKPIRKLHFEDEV [A3P],0.388
PKAIRKLHSEDEV [F9S],0.072
PKAYRKLHFEDEV [I4Y],0.374
PKAIRKLYFEDEV [H8Y],1.86
PKAIRKLHFHDEV [E10H],0.795
PKAIRKLHNEDEV [F9N],0.397
PKAIRKLHEEDEV [F9E],-0.19
PKAIRRLHFEDEV [K6R],1.39
PKASRKLHFEDEV [I4S],0.605
PKAIRKLHFEGEV [D11G],1.32
PKARRKLHFEDEV [I4R],3.56

# Block 2
# Target: Histone acetyltransferase KAT6A, winged helix 1, GST fusion (KAT6A, Homo sapiens, UniProt Q92794, residues 1-85)
# Method: protein binding microarray
# Form: double-stranded DNA, one strand shown
# Sample: in vitro
# Tested at: not given
# Notes: 8-mer, flanks averaged, mean of 2 arrays, mostly near background
# Baseline: not given
# Direction: higher = stronger binding
# Residues (chain): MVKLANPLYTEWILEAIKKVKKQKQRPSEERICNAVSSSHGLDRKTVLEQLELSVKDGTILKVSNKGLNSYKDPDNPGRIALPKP
Oligonucleotide,E-score
AGCTTACC,-0.0213
ATATTTCA,-0.227
CGTACAAC,0.0987
CATTCGTC,-0.143
ATGCATGA,-0.204
ATCCGACG,0.337
CCCAATCG,-0.059
ACTGACCG,0.231
CCAGGCGG,0.239
AAATAATG,-0.181
TCATCAGA,0.00796
ACTGCGTG,0.00647
AGTCTCAA,-0.149
GATGTTAC,0.114
GTGATAAA,6.5e-05
CGCGGTGC,0.416
ACGCACGT,0.232
TCTTCGAA,0.018
GACTGATC,-0.0769
CGTTAAGA,-0.182
GACTACAA,-0.0777
ATTCATAG,-0.0805

# Block 3
# Target: RNA binding protein fox-1 homolog 2, RRM domain, GST-SBP tag (RBFOX2, Homo sapiens, UniProt O43251-10, residues 100-194)
# Method: RNA Bind-n-Seq
# Form: RNA
# Sample: in vitro
# Tested at: 365 nM
# Notes: natural RNA segment, single round, ends assumed
# Baseline: no-protein control
# Direction: higher = stronger binding
# Constant ends, left off below: GGGAGUUCUACAGUCCGACGAUC … UGGAAUUCUCGGGUGCCAA
# Residues (chain): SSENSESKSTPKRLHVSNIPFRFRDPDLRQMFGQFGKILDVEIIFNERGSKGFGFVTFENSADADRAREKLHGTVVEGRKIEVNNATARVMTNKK
Oligonucleotide,RBNS enrichment (R)
CUGGACUGCAUGGGGAGGCAGCAGAGCGGGGUCCCCUCUGUGCUUCGACUACUGCUCCUGUGGCAGGAGGCUUUGGGUGGCUCACUACUGAACACAUGUGUAUGAUACUA,0.978
UACCAGUUCGGGUUAAUAAAAUGAUGCCACUUGUGUCUUUUGUUCUUAAGCAGGGAAGAUAAGAGACCCUGCUCUCCACAGGUUGGUACAAAGGGGAACCUUGCUUCUGU,0.302
AGAUAUCCGUCCAUUUUCAUCUCUUAAUUGUAGUCAAAAGUAUGACUUGAGAGUGUUGCUCUGGUAUUCUGGGUUCUGAAGUCUGGUAUUCUGGUAUUCUGGGUUCAAAA,0.423
UCCUCGGAAGAUGCACUGUGCUGUUUGAAAACAUGUAGCCGUUUAAGGCUAGAGUAUUUUAUAUAAAUAGAAGAGCUUAGGUCCUGAAGACCAAGGCAGAUAGAUGCAGC,0.51
CCAGCCACACCUGCUGCACGCCGCGUUAGUGUGCGGCUCCGGGCCUGAGCAUUCGCAAAGCUCGCUUCUCCAGGGAGCCUCCUCUUGGCUUUGGAAAAGAGCCCAGGGAC,0.39
UUGUGUUGUGAAGGGGUAGAAGAUCUCUGAAACUUGUCUUGAGAUUGAACUCAUUCCCUGUUCCACAAACCCAUAUGUAUCCUUUCCUCUACCUCCUCCUUUCCCAAUUA,0.516
UGUACUAGCAUCCGCAUUCCUCCCUCAGGGCAUGGUCUCAUCUCUGCAUCAGGAAUUUACCAGGAGAUGGAAAAGAACAGAAAAAGCCCUGAGCCUGUGUGUGUUCCUUC,0.877
GCUUGACAAUUCGAAAAUGAACCAAUGAUGUGCUGUGGAAUGUGAUGGUUGUCUUCAUAUAGAGUCACAUGGUUUCUCUUUUUAUGCAGAUAUUUAUAAUCUUCAUCCUA,0.577

# Block 4
# Target: ATP-dependent RNA helicase DDX3X, helicase core (DDX3X, Homo sapiens, UniProt O00571, residues 132-607)
# UniProt O00571, sequence (132-607, looked up): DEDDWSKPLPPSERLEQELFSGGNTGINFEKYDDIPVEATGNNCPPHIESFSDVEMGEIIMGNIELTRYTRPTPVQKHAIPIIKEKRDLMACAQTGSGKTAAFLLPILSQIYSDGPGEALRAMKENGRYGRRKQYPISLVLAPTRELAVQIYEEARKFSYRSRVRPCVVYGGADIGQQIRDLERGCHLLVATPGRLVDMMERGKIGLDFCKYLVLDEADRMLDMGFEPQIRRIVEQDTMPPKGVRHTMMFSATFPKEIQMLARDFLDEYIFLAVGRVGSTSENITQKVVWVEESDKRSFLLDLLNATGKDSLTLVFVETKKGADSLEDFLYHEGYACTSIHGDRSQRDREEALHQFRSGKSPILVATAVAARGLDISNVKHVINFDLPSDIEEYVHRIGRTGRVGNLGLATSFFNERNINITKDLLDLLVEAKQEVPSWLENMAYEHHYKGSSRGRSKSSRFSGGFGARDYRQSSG
# Method: RNA Bind-n-Seq
# Form: RNA
# Sample: in vitro
# Tested at: not given
# Notes: 4-mer, random 30-nt RNA, single round
# Together with: RocA, ADP, phosphate
# Baseline: input library
# Direction: higher = stronger binding
Oligonucleotide,4-mer enrichment [fold]
UGAA,1.16
CGUC,1.15
GUAC,0.773
AUGG,1.07
GGCC,0.717
CUAU,0.724
AAGU,1.14
GAGU,2.55
GGAC,0.865
CAGA,0.926
ACAA,0.819
GGCA,0.838
GACU,0.715
UGCA,0.766
CUAG,0.794
UACC,0.713
UAGA,1.05
CCUA,0.71
AAUG,1.11
AUCU,0.701
GUCU,0.865
GAAA,1.37
CUGA,0.952
CUUG,0.843
CACG,0.737
